Measured values gathered from unrelated publications.
Each numbered part is a random draw from the data of one study; scales do not carry over between parts. Substitutions count along the parent as printed.

Set 1 — technique: protein-binding microarray; form: double-stranded DNA, one strand shown; matrix: in vitro; concentration: 2540 nM top; setting: 60-bp whole probe; together with: salmon DNA 0.4 mg/ml; baseline: random background probes; reading: higher = stronger binding; shared flanks, not repeated: GCCTAGCAC … GTCTTGATTCGCTTGACGCTGCTG
Target: Interferon regulatory factor 3, full length, phosphomimetic (IRF3, Homo sapiens, UniProt Q14653, residues 1-427, S386D/S396D/S398D/S402D/T404D/S405D)
Construct (chain): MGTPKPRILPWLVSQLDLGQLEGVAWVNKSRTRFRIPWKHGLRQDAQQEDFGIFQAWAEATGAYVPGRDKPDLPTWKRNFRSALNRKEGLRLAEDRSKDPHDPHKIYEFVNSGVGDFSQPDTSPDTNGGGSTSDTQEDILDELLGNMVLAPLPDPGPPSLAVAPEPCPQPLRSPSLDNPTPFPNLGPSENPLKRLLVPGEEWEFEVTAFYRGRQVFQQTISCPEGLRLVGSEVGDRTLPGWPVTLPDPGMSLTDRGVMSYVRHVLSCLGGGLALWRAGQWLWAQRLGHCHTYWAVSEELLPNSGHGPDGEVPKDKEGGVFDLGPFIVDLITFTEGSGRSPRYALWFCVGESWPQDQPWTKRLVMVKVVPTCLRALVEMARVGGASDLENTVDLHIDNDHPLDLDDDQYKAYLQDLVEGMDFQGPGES
Strand | fitted relative affinity [z-score]
TCAAGAGTAGCTTTCTGACTGTGCTAG | -0.221
GACGAACTGGGATATCGAGACGTGCTA | -0.264
GGCGGTATCGGGACTGGGGACGTGCTA | 1.81
GACGGTTTCGACTATCGAGACGTGCTA | 3
TTAGTACTGGGTTTCGGTTAGTGCTAG | 3.21
TTAGGCATCGGGACTGGGTTAGTGCTA | -1.21
TTAGATATCAGAATGGATTAGTGCTAG | 0.803
TCTTGTCTGGAGTCTCTGTTCGTGCTA | -0.181
TCATTTTTCTCCTATTTAACTGTGCTA | 2.6
TTAGGTTTCGACTATCGGATAGTGCTA | 2.53
CCAACTCTGTTTTCGCTTTCTGTGCTA | 3.15
CCTCCTCTCTCTTTCCACTTGTGCTAG | 1.7
TTAGAACTAGGGTATCGATTAGTGCTA | -0.257
TCACCTTTCCTTTGCCTACTGTGCTAG | 3.5
GACGGTTTCGACTATCCGGACGTGCTA | 3.41
ATAGGTATCCTTTTCCTTTAGTGCTAG | 8.1
TTTTTTCTACTTCTCTTTTGGTGCTAG | 2.67
TTAGGTCCCCTTCTCCTTTAGTGCTAG | 3.51
TACTCTTGTGACTATGGACCGTGCTAG | -0.11
TCAGTTGTCCAGGCTGGTACTGTGCTA | -0.135
CTGTTCTGCAGACTTCTGTCGTGCTAG | 1.22
GACGGACTGGGTATCGGCACGTGCTAG | -0.434
TAAGGTTTCCTTCTCCTTTAGTGCTAG | 9.99
TTAGAAGTGGGGTATCGATTAGTGCTA | -0.193
TCACCTTTTAATTTTTAACTGTGCTAG | 3.33

Set 2 — technique: RNA Bind-n-Seq; form: RNA; matrix: in vitro; concentration: 365 nM; baseline: no-protein control; reading: higher = stronger binding
Target: RNA binding protein fox-1 homolog 2, RRM domain, GST-SBP tag (RBFOX2, Homo sapiens, UniProt O43251-10, residues 100-194)
Setting: natural RNA segment, single round, ends assumed
Shared flanks, not repeated: GGGAGUUCUACAGUCCGACGAUC … UGGAAUUCUCGGGUGCCAA
Residues (chain): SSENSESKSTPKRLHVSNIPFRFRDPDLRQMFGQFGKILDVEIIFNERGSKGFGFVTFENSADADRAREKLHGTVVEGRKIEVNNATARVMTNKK
Strand | RBNS enrichment (R)
UCCUGCAGCGUCCAGCCACGGCUCCAGGGCACUGCUCUCCUCCUUGCACCGGUGAAACUCAGGCCACACUCAAGGGCUGACUGUCCAGGCGCUCCCUUCAGCCGCCUCGU | 0.25
GAGCCUGGAGCAGAAAUGGCAGCCCCAUCCUUCCUCCAGCCACUACCCCAAGCUACAGUGGGGGCCCAUGGCCCCAGCUUGCUAGGUCACCCUCCACCCCUCCUCCAGCG | 0.363
UUCUUGGUCACAAUAUUUUUUAGUGGAAUUCCUCUCAAGGUUUUUAUACUCCUGUGUAAUAAGACUGAUGCAGAGCCCUGAAUUUCAUUCUGUCUAUGAAUACCUUUUUG | 0.517
CCGAGGGGACCGGGUGUGUUUGGCUCUUUAUGCCCCUCCCGCUGUGGUCCUGGAACUCUUCACCAGGGAGGGAGCCCUGCGGGGGCCGCAGCUUUGUGGAGGGAGCCGCC | 0.567
ACUGGUGCAGAUGGUUGACAUUUUUCCCUAUUUUCCUCACUUUAUGAAAGAAUUUAAAUAAAAAAAAAGAACAUUUCUAAAACCAGAGGACAAAAGGGGUUAAUGUUACG | 0.366
UAAGGUGGGUACUCUGAGCAGCCUGCCCUGCCUCUCGUGCUUUGAAAUUCUUUUGGUAGAAAUCCCUGAAGAGGUGCACCCAUCACUCAGUGCCCAGGGUCCUUUUCUGG | 0.586
CCUUGCACUACCAGAAGAUUCAUACACUUUUGAGACUCCAGUGAGACGCUGUUUUCACCCCUUCCUCCUCCUAGCCUCUCUCCCAAAAAGUAAAACACAAUGCUGAAGAA | 0.88
AUUUAUUCUCUACAAUAUAUAAAAUGUAUUUGUUCUCUACAAUAAAUGUGUUUAUUCUCUACAAUAUAUAAAAACAUAUUGGACUACUAUUACAUAAUUAAAUUACUCUU | 0.65
UGGAUUGUGACUUGUAGACUCAAGCUAACCUUACUGCCUCUUUUUCACACUUGUUGAAAAGUCUGUGAAGAACAUAGUUAAAGAUCUCCAACUUUGGAAAAUAUACAUGA | 0.531
CUCAAGAUGUAUCUGAGUAGCUGCCUGAAAGCAGAUGACACUGCAGUCAGGAGGUGAGAGGCUGAGGAAAGAGCCAGCAUCAGGAGGUGACUCUGGUUGGCAAGGGUGAG | 0.486
CCAUCUUCUUGGUUUGAAGCUUUAUCCAUGUAUCAUGUUCCGUGUAGCCAUUUUAUUUUUUAAGAAACUGCUAAUACUUUCUCCCUAAUGGAAGCCCUGAUCCCCCAGAG | 0.654
GGCAGGAGAAGAGAAUGGAUGUGUCUUCUCUCCCAUCUUCCCCUCAUCAUCGACCGAGGAGCACAAAGAAGUUCUGUUUCUGUUUUUUUCAGAAACUUUAUUUUAGCUGU | 0.639

Set 3 — target: CCNB3, cyclin fold, Cln2 fusion (human); technique: yeast growth competition, sequencing; matrix: yeast; setting: weak parent motif; baseline: not given; reading: higher = stronger binding
Parent: CDC25A docking peptide (human); PPHRRRLLFACSP
Change | normalised enrichment score
L7S | -0.14
L7T | 0.571
R5K F9L | 0.241
L8A | 0.0956
R5W | 0.285
H3N | 0.152
P2H | 0.357
R6E | 0.247
L8Q | -0.436
L7Y | 0.135
P1W | 0.149
P2Q | 0.441
L7K | 0.255
A10W | 0.121
R6L | 0.334
L8G | 0.0295

Set 4 — technique: protein binding microarray; form: double-stranded DNA, one strand shown; matrix: in vitro; concentration: not given; baseline: not given; reading: higher = stronger binding
Target: Histone acetyltransferase KAT6A, winged helix 2, GST fusion (KAT6A, Homo sapiens, UniProt Q92794, residues 85-181)
Setting: 8-mer, flanks averaged, mean of 2 arrays, mostly near background
Target sequence (chain): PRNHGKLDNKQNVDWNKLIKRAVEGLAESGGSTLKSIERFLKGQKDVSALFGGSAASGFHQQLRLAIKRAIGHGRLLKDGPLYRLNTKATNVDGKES
Strand | E-score
ACACGTGA | -0.388
CGATAGTA | -0.142
GCTGGGCA | 0.189
GGGAGAGA | -0.0668
AGACCTTC | -0.131
AGTCTTGG | -0.19
GAAGCATA | 0.0693
CGCACGCA | 0.192
CGTAGAAG | -0.0552
GGCTCCGA | 0.102
GAATAGGC | 0.0229
AAACTACC | 0.0449
GGCCGAGA | 0.224
CCGTCACC | -0.00754
AGCATAGA | 0.131
TCGCGTCA | 0.0799
GTTGACGA | -0.0413
CGTGTGAG | -0.00258
CGTCCCTA | -0.00035
AGAGGTAT | -0.0358
AGTCCGCC | 0.0838
ACGCAACA | 0.118
CTCTGAAC | 0.0491
TATGACCA | -0.0929
ATAGACTG | -0.113

Set 5 — technique: aptamer microarray, sandwich; form: DNA with 2'F-ANA; matrix: in vitro; concentration: 200 nM; together with: Cy3 exosite-II aptamer, 400 nM; reading: higher = stronger binding; strand: GGTTGGTGTGGTTGG
Target: Prothrombin, mature alpha-thrombin (F2, Homo sapiens, UniProt P00734)
Setting: whole 15-mer aptamer, many near background
Modification | mean fluorescence intensity
2'F-ANA at 1 5 7 8 10 11 12 13 14 | 47.3 a.u.
2'F-ANA at 1 2 6 7 11 14 | 61.1 a.u.
2'F-ANA at 1 5 7 8 9 14 | 46.2 a.u.
2'F-ANA at 1 3 4 5 6 7 8 10 11 12 | 112 a.u.
2'F-ANA at 1 2 4 8 10 11 12 | 58.1 a.u.
2'F-ANA at 1 2 3 4 5 6 12 13 14 15 | 49.9 a.u.
2'F-ANA at 3 5 6 11 | 101 a.u.
2'F-ANA at 1 2 3 4 7 9 11 13 15 | 280 a.u.
2'F-ANA at 1 2 5 6 7 9 10 13 15 | 50.1 a.u.
2'F-ANA at 1 2 5 7 8 10 11 13 | 67.2 a.u.
2'F-ANA at 1 4 8 10 13 15 | 49.8 a.u.
2'F-ANA at 1 3 4 8 9 10 11 12 15 | 75.9 a.u.
2'F-ANA at 2 4 5 7 9 10 12 13 14 | 49.2 a.u.

Further values, each from its own experiment
Molecule | target | assay | test system | setting | scale | quantity | result
PhoQ, residues 284 288 289 292 302 303 AANNSF | PhoP, residues 12 14 15 18 19 NHTVL (Escherichia coli, UniProt P23836) | Sort-seq, measured: YFP reporter | E. coli | PhoQ-PhoP variant library, together with: 10 µM Mg2+ | baseline: high Mg2+ state, higher = stronger signaling | fold induction | 0.622

For quick reference, copied from above (further values, each from its own experiment):
Molecule | target | assay | test system | setting | scale | quantity | result
PhoQ, residues 284 288 289 292 302 303 AANNSF | PhoP, residues 12 14 15 18 19 NHTVL (Escherichia coli, UniProt P23836) | Sort-seq, measured: YFP reporter | E. coli | PhoQ-PhoP variant library, together with: 10 µM Mg2+ | baseline: high Mg2+ state, higher = stronger signaling | fold induction | 0.622
